Measurements pooled from the literature.
A part holds a random share of what one study measured.

Sample 1 — method: protein binding microarray; form: double-stranded DNA, one strand shown; sample: in vitro; concentration: not given; reference: not given; direction: higher = stronger binding
Target: Histone acetyltransferase KAT6A, both winged helices, GST fusion (KAT6A, Homo sapiens, UniProt Q92794, residues 1-181)
Setting: 8-mer, flanks averaged, mean of 2 arrays, mostly near background
Construct (chain): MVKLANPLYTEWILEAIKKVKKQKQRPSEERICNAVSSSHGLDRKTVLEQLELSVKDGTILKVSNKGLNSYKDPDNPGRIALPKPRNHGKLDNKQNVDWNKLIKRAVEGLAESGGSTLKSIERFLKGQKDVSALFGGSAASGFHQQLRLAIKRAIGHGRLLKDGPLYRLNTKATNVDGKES
Sequence	E-score
CAGGTGCC	0.0134
GTCCGCTA	0.147
AAGTGTAT	-0.0092
CGTTGCGA	0.0726
CGCCTACG	0.178

Sample 2 — method: universal PBM; form: double-stranded DNA, one strand shown; sample: in vitro; concentration: not given; direction: higher = stronger binding
Target: Sal-like protein 4, full length isoform B (SALL4, Homo sapiens, UniProt Q9UJQ4-2, residues 1-616)
Setting: 8-mer, flanks averaged, mean of replicates
Sequence	E-score
CCATCGGA	-0.278
GAGCTTAC	-0.0815
CACTCAAA	0.0773
AGGCAACT	0.057
CCGATAGG	-0.0471
AACACGTA	0.261
CTGCCGCC	-0.4

Sample 3 — method: protein-binding microarray; form: double-stranded DNA, one strand shown; sample: in vitro; concentration: 0.8 µM; setting: whole 60-bp probe, no competitor; direction: higher = stronger binding
Target: Centromere-binding protein 1, full length, N-terminal tag (CBF1, Saccharomyces cerevisiae, UniProt P17106, residues 1-351)
Chain of UniProt P17106 (whole entry, looked up): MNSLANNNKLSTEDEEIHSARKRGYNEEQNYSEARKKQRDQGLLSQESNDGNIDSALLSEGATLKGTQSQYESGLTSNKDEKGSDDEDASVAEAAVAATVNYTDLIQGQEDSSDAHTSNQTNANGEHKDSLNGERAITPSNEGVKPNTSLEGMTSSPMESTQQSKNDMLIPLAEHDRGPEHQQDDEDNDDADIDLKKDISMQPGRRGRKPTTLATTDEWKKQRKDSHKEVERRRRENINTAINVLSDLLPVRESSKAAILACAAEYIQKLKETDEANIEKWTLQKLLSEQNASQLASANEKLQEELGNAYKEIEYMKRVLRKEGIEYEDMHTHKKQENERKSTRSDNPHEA
Sequence	fluorescence intensity [a.u.]
GAATTCAAGTTACATGTGATATTTATTCGAGAATAGGTCTTGATTCGCTTGACGCTGCTG	2460
CTAAAATTTGGAAGTCATGCAAGAAGAAGAAGCTTCGTCTTGATTCGCTTGACGCTGCTG	557
GAAGACAGTTGTGCTCACATGATATAACAAAAGTAGGTCTTGATTCGCTTGACGCTGCTG	1890
CTAGGGAAGACTCAGCACGTTATATACTATTAATTCGTCTTGATTCGCTTGACGCTGCTG	644

Further values, each from its own experiment
Molecule	target	assay	system	setting	scale	endpoint	value
PhoQ, residues 284 288 289 292 302 303 TASMAF	PhoP, residues 12 14 15 18 19 LHHVQ (Escherichia coli, UniProt P23836)	Sort-seq, item: YFP reporter	E. coli	PhoQ-PhoP variant library, together with: 10 µM Mg2+	reference: high Mg2+ state, higher = stronger signaling	fold induction	22

Some of these lines once more (sample 2):
Sequence	E-score
CCATCGGA	-0.278
CCGATAGG	-0.0471
CTGCCGCC	-0.4
